Assay results of several laboratories.
Each numbered part is a random draw from the data of one study; scales do not carry over between parts.

Study 1 — method: universal PBM; molecule type: double-stranded DNA, one strand shown; matrix: in vitro; tested at: not given; reading: higher = stronger binding; quantity: E-score
Target: Sal-like protein 4, full length isoform B (SALL4, Homo sapiens, UniProt Q9UJQ4-2, residues 1-616)
Setting: 8-mer, flanks averaged, mean of replicates
Sequence = AGGAGAAG; result = -0.0682
Sequence = ATACTCAC; result = 0.17
Sequence = TGCGAACA; result = 0.115
Sequence = CCCATACG; result = -0.0822
Sequence = GAACATTC; result = 0.148
Sequence = CTCAACAG; result = 0.0587
Sequence = AGGTGGCC; result = -0.258
Sequence = CGGGTGCA; result = -0.238
Sequence = CGTCTGGC; result = -0.201
Sequence = CGGTGGCC; result = -0.376
Sequence = CTCAAGTC; result = -0.0273
Sequence = GCAGGCTA; result = -0.251
Sequence = AGTAACGC; result = -0.0571
Sequence = CAGGGTCA; result = -0.154
Sequence = AGTCTTTA; result = 0.0675
Sequence = CTAAATCA; result = 0.117
Sequence = AAAAGATG; result = 0.171
Sequence = CTTACAAA; result = 0.0657
Sequence = AGCTATGG; result = -0.0544
Sequence = TTCCAAAA; result = 0.261
Sequence = CTCGAGAC; result = -0.0129
Sequence = TCGGTGCA; result = -0.171
Sequence = CTTGTCGC; result = -0.104
Sequence = GCTACTCA; result = 0.00181
Sequence = ACTTACAT; result = 0.158

Study 2 — method: protein-binding microarray; molecule type: double-stranded DNA, one strand shown; matrix: in vitro; tested at: not given; reading: higher = stronger binding; quantity: E-score
Target: Max-binding protein MNT, bHLH-zipper, MAX partner unstated (MNT, Homo sapiens, UniProt Q99583, residues 220-300)
Setting: k-mer, scored over probes, only values ≥0.25
Construct (chain): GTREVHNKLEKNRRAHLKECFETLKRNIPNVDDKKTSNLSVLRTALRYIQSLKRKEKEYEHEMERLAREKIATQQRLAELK
Sequence = ACCCCACC; result = 0.296
Sequence = ACACGCTC; result = 0.351
Sequence = ACTGCGTG; result = 0.321
Sequence = GTCGCCAC; result = 0.292
Sequence = CATGCTCG; result = 0.381
Sequence = ACACCTGT; result = 0.274
Sequence = ATGCCACG; result = 0.4
Sequence = CCCATGGG; result = 0.279
Sequence = GTGCGCAC; result = 0.351
Sequence = CACGTGAA; result = 0.487
Sequence = AACGTGTA; result = 0.42
Sequence = ACGTGACT; result = 0.426
Sequence = CGTGGATA; result = 0.324
Sequence = CCATGCGA; result = 0.361
Sequence = CATGGTGC; result = 0.36
Sequence = ACTACACG; result = 0.342

Study 3 — method: RNA Bind-n-Seq; molecule type: RNA; matrix: in vitro; tested at: not given; relative to: input RNA pool; reading: higher = stronger binding; quantity: bound/input enrichment
Target: RING finger protein unkempt homolog, zinc fingers 1-6, GST-SBP tag (UNK, Homo sapiens, UniProt Q9C0B0, residues 30-357)
Setting: RNA with constant flanks, human and mouse sites, ends assumed
Constant ends, left off below: GGGAGUUCUACAGUCCGACGAUC … CAACAGAGGAUUGAGCAUCA
Residues (chain): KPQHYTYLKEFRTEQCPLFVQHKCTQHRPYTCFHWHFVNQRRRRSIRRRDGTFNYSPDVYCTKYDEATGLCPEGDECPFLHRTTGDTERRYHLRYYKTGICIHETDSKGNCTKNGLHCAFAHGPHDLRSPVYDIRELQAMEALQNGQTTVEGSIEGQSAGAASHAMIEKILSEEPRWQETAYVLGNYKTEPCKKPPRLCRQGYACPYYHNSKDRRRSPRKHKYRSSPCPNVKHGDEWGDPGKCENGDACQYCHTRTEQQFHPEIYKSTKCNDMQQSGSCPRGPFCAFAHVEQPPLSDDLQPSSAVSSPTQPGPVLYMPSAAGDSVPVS
Sequence = CGAAUGAGAAACCAAUCCCUUGGACAGUCUGCACCUUCCCUUACGGCUGGCUUGAAGGAAUUGAGCCUUCCAAGGAGAGGCAGCUUUUGUCGGACAAGUAACCGCAAGAGCUUGAUUGUA; result = 0.092 ratio
Sequence = AAAACCAUCAAGCUAUGGAAUACCCUGGGUGUGUGCAAAUACACUGUCCAGGAUGAGAGCCACUCAGAGUGGGUGUCUUGUGUCCGCUUCUCGCCCAACAGCAGCAACCCUAUCAUCGUC; result = 0.116 ratio
Sequence = GCCUUAGCUGCAUCUUGGACCUCAAGACAAGUAGGAGAACGGACGUUGACCGGUACGGUAAUAGACAGUGGAGAUGGUGUCACUCAUGUCAUUCCUGUGGCUGAAGGGUAUGUGAUUGGC; result = 0.346 ratio
Sequence = UUGACAUUACAGCCAAAAUGGUGCUGUCCCAGAGACAACGAGAUGAACUAAAUCGAGCUAUAGCAGAUUAUCUUCGUUCAAAUGGCUAUGAAGAGGCAUAUUCCGUUUUUAAAAAGGAAG; result = 0.225 ratio
Sequence = UUUGGUGCACAAAAUCCUUCUGUGGGCAAAACUUUGUUUUUGUUUUGCACAGUAAGAAACAAUAGGCAAGCGUUAUGUUUUUGGUAAGUUAACUAUGAAAGCUUUCUUAUUUUUAUUAUU; result = 0.705 ratio
Sequence = AGGGAGCUUCCAGGAAGACUUGCCUCAAACAACUGAGCCAAAGACAGACUGGUUAGAACGUAGUCAUAUGCUUUUGUGUGCAAAUAAUAUUUUCAAAGAACUAAUAAUAAUUUGAUUGAG; result = 2.15 ratio
Sequence = CAAAUUUUUCACUCAAAGGAGAGUAUAGUUGCAACCACUAAAUCCAAAAAGGACACGUUUGUUUUAGAAAGCGUUGAUUCUGCUGAUGAACAAUUUCAAAAUACUAAUGCUGAGACUCUC; result = 0.421 ratio
Sequence = GUUCGAGCUAAAUUCAAAUUCUCUCUUCUCAAUGAUAAAAGGGAAGAAACAAAAGCAAUGGAAAGCCAAAGAGCAUAUCGAUUUGUACAGGGGAAGGACUGGGGAUUUAAAAAAUUCAUU; result = 0.34 ratio

Study 4 — method: RNA Bind-n-Seq; molecule type: RNA; matrix: in vitro; tested at: 365 nM; relative to: no-protein control; reading: higher = stronger binding; quantity: RBNS enrichment (R)
Target: RNA binding protein fox-1 homolog 2, RRM domain, GST-SBP tag (RBFOX2, Homo sapiens, UniProt O43251-10, residues 100-194)
Setting: natural RNA segment, single round, ends assumed
Constant ends, left off below: GGGAGUUCUACAGUCCGACGAUC … UGGAAUUCUCGGGUGCCAA
Construct (chain): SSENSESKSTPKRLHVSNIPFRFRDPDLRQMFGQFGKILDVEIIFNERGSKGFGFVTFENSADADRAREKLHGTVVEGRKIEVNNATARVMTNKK
Sequence = GGCACUGGGCCUGUUGCCUGCCAGUCAUGGACACCCAUGUGAAAAAUCCUGAUUUCCAGCUCAUGGAGCCAGCGUUUGAACCUUGAACAAAUAAAUUUCAUUUAUGAUUU; result = 0.438
Sequence = GGCAGGGCUAUUCUUUUUAUUUCUGCGAGGGACAAGAGUCUGGCUUUUAAGCUGCAGCCCCGCUGUUCCUUUUCUCCUCUGUCCCAUUUCCUACCUUACAUGAAAUCCAU; result = 0.221
Sequence = UUUGCUUUAUUGAUGCACGGAUGCUUUUGAACAGUAGAGCGAAAUGCUAGACAUGGAGAAUCUGCUCUGUUUGUCCUUUAUACAUUUCUGUAGUUAACAGAACACUGUAA; result = 1.07
Sequence = UGCAUAAGGAGCCACUGCUGCCACCACUUUUGGAUUUUAUGGGAGGCUCCUUCAUCGAAUGCUAAACCUUUGAGUAGAGUCUCCCUGGAUCACAUACCAGGUCAGGGAGG; result = 0.418
Sequence = GAAUUACAAACUUUAAACACUUUUUAAAUCUUCAAAAUAUUUAAAACAAAUUUAAAGGGCCUGUUAAUUCUUAUAUUUUUCUUUACUAAUCAUUUUGGAUUUUUUUCUUU; result = 1.25
Sequence = GAGCACCCCCUGCUCCACCAGCAGCAUGGCUAGUGCCCAGCCUGGAGCCUCGGGGAGCCCCCCAGCCAGCCCUUGCCCUGCAGGAGAGACCGAGCAGCCACAAGCUGGAA; result = 0.427
Sequence = UUAUUCAUGAGAUUUGUACAAACCCUAUACCGGAAUGGAUGCUUCCCUUCCACCUCCCUGAAAUGUACGUGGAGCCACUCAGAACACAACUGUAUCACUGAGGUAACUCC; result = 0.235
Sequence = AAAAGCUGUAUUUGAACAGAGCAUGCGUUUAAAGCCCUUAACAAAUUCAUCACAUAAUCUUAAAUUGGAACUUUGCACGGUUCUUAGUCCAAGUGUGCUCUCCUUUCAUA; result = 1.82
